Published values pooled from the literature.
Lines come from different studies, so protocols differ. Several values in a cell are separate wells, animals, samples, runs or records.
Target: Serine/threonine-protein kinase 17A (STK17A, Homo sapiens, UniProt Q9UEE5)

Compound | assay | system | setting | scale | endpoint | result
COCC12C(=O)NC3C4(C(OC)CC1O)C1CC5(O)C(OC)C(O)C(OC(C)=O)(C1C5OC(=O)c1ccccc1)C3(O)C(OC)C24 (stereo not drawn) | kinase activity, inhibitor, ProQinase kinase profiling | – | 25 µM | reference: control | remaining activity | 73% and 72%
CNC1C[S+]2CC[S+]3CC[S+](C1)[Ru-4]321([N]=C=S)[n]2c3ccc(OC)cc3c3c4c(c5cc(F)c[n+]1c5c32)C(=O)NC4=O (stereo not drawn) | KinomeScan | – | 0.1 µM | reference: untreated | remaining binding | 49%
CCn1cc(C(=O)O)c(=O)c2c(N)c(F)c(NC3CCCCC3)cc21 | kinase activity | – | 0.1 µM, with: ATP at Km | – | inhibition | 15.7%
CCN1CCN(Cc2ccc(C(=O)Nc3ccc(C)c(NCc4cnc5[nH]ccc5c4OC)c3)cc2C(F)(F)F)CC1 | binding, competition with immobilised ligand | – | 1 µM | – | remaining binding | 100%
COc1c(Cl)cccc1Nc1c(-c2ccncc2C#C[C@@]2(C)CCCN2C(=O)/C=C/CN(C)C)[nH]c2c1C(=O)NCC2 | cell-free assay, competition with immobilised ligand | – | 3 µM | – | remaining binding | 85%
COC(=O)[C@@]1(C)C=C(C(=O)Nc2cccc(C(=O)Nc3ccc(Nc4nccc(-c5cccnc5)n4)c(C)c3)c2)C(=O)CC1 | enzyme activity, inhibitor, radiometric | – | 1 µM | – | remaining activity | 74%
Cc1cnc2nc1Nc1cccc(c1)COC/C=C/COCc1cc(ccc1OCCN1CCOCC1)N2 | binding, competition with immobilised ligand | – | 0.1 µM | – | remaining binding | 100%
CN1CCN(Cc2ccc(-c3ccc(CO[C@H]4CCC[C@@H]4NC(=O)c4cc(-c5cnn(C)c5)cnc4N)cc3)cc2)CC1 | enzyme activity, inhibitor | – | 0.1 µM | – | inhibition | 5%
Fc1cncc(-c2ccc3[nH]c4ncnc(N[C@H]5CC[C@H](N6CCOCC6)CC5)c4c3c2)c1 | enzyme activity, inhibitor, radiometric | – | 1 µM | – | inhibition | 86%
COc1cc(Nc2nc(C)cc(-c3cnn4nc(OC)ccc34)n2)cc(C(F)(F)F)c1 | inhibitor | – | 1 µM, DRAK1 | reference: control | remaining activity | 66%
Nc1ncc2c(n1)-c1c([nH]c3ccc(C4=CCOCC4)cc13)CCC2 | binding, competition with immobilised ligand | – | 1 µM | – | remaining binding | 72%
CNC(=O)C[C@H](Cc1ccc(C#N)cc1)NC(=O)c1cc(-c2ccc(CN[C@H](C)c3ccc(C)cc3)o2)ccc1Cl | enzyme activity, inhibitor | – | 1 µM | – | activity vs control | 104%
Cc1ccc(C(=O)Nc2ccc(CN3CCN(C)CC3)c(C(F)(F)F)c2)cc1C#Cc1cnc2cccnn12 | target engagement, NanoBRET | human cells | – | – | Hill slope | 0.823
NC(=O)C[C@H]1CCc2sc3ncnc(O[C@H]4CC[C@H](N5CCOCC5)CC4)c3c21 | enzyme activity, inhibitor | – | 10 µM | – | inhibition | 3%
COc1c(OCCCN2CCOCC2)ccc2c1N=C(NC(=O)c1cnc(N)nc1)N1CCN=C21 | kinase activity, inhibitor | – | 1 µM | reference: untreated control | remaining activity | 92%
